Results of several laboratories.
Compare with care: the assays were run in different laboratories. Values joined by “and” are separate records of one study, mostly repeats; a detail may differ. Numbers after ± are the reported error.
FAP: Prolyl endopeptidase FAP (FAP, Homo sapiens, UniProt Q12884)
Chain of UniProt Q12884 (whole entry, looked up): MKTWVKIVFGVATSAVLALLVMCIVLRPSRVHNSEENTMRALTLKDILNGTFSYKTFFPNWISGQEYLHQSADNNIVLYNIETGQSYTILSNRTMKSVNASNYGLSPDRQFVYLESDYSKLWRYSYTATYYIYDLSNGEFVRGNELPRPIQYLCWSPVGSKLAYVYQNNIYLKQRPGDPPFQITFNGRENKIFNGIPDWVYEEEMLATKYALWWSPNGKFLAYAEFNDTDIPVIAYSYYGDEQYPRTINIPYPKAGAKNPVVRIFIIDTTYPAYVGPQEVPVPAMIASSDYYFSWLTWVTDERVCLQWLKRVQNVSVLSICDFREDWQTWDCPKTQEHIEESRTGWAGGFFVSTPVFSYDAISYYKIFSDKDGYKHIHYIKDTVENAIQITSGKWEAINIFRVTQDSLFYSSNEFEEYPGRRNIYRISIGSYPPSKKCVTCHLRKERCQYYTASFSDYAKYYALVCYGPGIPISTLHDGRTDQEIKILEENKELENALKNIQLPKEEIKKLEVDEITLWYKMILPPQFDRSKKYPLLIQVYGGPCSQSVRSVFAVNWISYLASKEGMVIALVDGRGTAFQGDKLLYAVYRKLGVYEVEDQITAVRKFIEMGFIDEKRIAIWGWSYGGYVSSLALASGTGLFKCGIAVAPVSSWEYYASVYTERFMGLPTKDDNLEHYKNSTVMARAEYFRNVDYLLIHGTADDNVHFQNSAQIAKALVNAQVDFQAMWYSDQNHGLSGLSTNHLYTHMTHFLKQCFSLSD
HRH1: Histamine H1 receptor (HRH1, Homo sapiens, UniProt P35367)
Chain of UniProt P35367 (whole entry, looked up): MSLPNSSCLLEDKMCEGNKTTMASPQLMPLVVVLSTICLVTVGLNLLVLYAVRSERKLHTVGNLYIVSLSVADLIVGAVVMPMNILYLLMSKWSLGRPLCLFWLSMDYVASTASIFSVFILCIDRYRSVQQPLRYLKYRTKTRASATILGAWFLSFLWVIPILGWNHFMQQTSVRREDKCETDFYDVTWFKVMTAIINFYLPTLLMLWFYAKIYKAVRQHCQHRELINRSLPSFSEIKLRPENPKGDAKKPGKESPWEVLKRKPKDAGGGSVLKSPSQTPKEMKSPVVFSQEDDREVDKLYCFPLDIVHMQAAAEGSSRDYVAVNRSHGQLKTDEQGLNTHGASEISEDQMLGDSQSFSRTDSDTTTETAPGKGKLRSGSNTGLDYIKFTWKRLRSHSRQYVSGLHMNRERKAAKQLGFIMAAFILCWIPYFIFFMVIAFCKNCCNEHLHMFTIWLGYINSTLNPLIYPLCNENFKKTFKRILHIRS
APEX1: DNA repair nuclease/redox regulator APEX1 (APEX1, Homo sapiens, UniProt P27695)
Chain of UniProt P27695 (whole entry, looked up): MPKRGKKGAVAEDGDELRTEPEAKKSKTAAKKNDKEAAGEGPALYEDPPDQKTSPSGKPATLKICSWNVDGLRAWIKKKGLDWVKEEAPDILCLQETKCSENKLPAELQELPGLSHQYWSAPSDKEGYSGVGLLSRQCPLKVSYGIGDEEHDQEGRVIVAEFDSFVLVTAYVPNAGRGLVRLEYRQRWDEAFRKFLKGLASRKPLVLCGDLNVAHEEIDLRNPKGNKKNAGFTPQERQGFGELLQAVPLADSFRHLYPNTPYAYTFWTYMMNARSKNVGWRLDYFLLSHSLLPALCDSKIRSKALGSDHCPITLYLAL
DXR: 1-deoxy-D-xylulose 5-phosphate reductoisomerase, apicoplastic (DXR, Plasmodium falciparum, UniProt O96693)
Chain of UniProt O96693 (whole entry, looked up): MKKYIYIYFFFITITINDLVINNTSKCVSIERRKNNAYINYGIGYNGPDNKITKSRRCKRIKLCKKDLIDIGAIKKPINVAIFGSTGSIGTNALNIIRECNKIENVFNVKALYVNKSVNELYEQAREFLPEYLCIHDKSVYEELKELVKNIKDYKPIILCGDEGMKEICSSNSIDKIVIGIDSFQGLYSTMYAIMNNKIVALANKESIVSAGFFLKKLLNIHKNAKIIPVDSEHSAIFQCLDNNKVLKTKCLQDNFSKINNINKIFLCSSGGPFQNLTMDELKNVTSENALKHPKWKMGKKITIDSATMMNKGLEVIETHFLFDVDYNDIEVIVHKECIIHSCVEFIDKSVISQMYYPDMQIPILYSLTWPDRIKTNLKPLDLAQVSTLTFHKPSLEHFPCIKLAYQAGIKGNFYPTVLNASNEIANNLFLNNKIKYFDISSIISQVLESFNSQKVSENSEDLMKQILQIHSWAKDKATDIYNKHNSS
FPR1: fMet-Leu-Phe receptor (FPR1, Homo sapiens, UniProt P21462)
Chain of UniProt P21462 (whole entry, looked up): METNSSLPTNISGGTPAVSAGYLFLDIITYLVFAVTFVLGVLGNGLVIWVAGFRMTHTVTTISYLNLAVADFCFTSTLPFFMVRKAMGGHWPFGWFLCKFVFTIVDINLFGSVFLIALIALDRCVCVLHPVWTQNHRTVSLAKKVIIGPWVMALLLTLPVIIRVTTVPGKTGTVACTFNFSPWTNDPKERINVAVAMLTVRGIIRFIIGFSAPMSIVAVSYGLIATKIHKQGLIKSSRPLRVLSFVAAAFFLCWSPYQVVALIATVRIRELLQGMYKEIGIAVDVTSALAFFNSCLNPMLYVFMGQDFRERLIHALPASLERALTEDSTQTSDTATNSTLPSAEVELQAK
Na(+)/H(+) exchange regulatory cofactor NHE-RF2 PDZ domain 2: Na(+)/H(+) exchange regulatory cofactor NHE-RF2, PDZ domain 2 (Homo sapiens, UniProt Q15599)
Chain of UniProt Q15599 (whole entry, looked up): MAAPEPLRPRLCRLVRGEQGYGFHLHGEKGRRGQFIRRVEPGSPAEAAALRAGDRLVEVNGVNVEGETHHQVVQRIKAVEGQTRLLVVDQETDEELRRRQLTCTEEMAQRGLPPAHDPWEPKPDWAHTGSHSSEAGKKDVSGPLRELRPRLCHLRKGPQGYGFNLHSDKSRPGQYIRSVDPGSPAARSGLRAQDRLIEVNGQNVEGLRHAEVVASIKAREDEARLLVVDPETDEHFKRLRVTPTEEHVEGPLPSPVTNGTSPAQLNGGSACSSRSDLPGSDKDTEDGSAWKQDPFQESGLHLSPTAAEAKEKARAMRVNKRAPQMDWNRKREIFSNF
Drd3: D(3) dopamine receptor (Drd3, Rattus norvegicus, UniProt P19020)
Chain of UniProt P19020 (whole entry, looked up): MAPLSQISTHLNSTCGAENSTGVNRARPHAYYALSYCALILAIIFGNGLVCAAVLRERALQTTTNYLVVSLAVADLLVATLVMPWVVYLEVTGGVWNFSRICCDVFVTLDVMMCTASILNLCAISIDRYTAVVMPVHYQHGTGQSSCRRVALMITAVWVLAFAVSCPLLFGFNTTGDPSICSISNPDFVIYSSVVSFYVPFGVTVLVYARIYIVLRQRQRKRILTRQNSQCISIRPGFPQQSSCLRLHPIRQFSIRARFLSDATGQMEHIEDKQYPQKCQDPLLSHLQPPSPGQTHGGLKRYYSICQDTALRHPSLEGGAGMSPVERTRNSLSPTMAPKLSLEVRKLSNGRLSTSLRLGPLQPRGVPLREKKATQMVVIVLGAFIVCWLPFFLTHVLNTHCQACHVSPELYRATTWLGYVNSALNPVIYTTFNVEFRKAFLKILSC
Cnr1: Cannabinoid receptor 1 (Cnr1, Rattus norvegicus, UniProt P20272)
Chain of UniProt P20272 (whole entry, looked up): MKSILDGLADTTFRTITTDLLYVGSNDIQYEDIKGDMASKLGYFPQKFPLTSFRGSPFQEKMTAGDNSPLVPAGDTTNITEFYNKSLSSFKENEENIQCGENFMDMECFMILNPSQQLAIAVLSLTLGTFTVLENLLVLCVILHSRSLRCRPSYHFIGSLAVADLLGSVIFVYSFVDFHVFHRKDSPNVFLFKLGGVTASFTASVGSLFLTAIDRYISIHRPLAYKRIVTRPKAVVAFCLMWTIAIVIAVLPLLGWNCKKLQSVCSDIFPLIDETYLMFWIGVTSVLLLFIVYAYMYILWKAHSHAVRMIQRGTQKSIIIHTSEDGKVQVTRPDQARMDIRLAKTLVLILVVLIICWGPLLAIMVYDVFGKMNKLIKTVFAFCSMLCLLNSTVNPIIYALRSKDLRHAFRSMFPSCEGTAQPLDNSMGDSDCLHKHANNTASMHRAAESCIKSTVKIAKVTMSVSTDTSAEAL
P2RY1: P2Y purinoceptor 1 (P2RY1, Homo sapiens, UniProt P47900)
Chain of UniProt P47900 (whole entry, looked up): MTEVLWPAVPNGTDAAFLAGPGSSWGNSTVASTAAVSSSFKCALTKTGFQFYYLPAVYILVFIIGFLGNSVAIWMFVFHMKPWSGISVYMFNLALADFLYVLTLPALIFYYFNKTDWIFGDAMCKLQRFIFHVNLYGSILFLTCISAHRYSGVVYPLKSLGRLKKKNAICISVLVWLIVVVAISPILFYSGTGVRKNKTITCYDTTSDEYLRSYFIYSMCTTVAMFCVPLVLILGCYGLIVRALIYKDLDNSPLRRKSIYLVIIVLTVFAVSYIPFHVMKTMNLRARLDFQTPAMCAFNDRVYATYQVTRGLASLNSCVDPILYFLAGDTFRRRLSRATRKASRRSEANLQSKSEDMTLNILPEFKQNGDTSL
MSP: Male-specific submandibular salivary gland protein (MSP, Mesocricetus auratus, UniProt Q9QXU1)
Chain of UniProt Q9QXU1 (whole entry, looked up): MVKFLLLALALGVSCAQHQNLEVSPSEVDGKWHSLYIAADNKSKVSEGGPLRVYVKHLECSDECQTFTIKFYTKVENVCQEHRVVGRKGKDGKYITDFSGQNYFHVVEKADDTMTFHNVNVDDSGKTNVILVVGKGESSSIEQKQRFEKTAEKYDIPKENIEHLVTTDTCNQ
Chain of UniProt P20813 (whole entry, looked up): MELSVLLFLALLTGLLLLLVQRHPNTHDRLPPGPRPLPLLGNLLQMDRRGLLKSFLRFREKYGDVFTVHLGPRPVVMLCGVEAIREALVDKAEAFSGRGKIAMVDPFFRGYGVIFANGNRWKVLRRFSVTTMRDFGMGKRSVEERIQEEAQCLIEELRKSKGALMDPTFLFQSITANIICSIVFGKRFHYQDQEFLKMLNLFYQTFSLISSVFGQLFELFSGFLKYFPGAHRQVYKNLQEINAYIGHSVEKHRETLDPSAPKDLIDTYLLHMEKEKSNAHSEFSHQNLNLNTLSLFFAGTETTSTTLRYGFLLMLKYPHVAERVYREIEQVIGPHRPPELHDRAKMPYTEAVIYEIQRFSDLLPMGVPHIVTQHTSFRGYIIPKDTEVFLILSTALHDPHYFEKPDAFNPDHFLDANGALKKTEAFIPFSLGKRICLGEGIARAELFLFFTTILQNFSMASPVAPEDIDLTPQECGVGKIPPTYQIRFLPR
Chain of UniProt Q60492 (whole entry, looked up): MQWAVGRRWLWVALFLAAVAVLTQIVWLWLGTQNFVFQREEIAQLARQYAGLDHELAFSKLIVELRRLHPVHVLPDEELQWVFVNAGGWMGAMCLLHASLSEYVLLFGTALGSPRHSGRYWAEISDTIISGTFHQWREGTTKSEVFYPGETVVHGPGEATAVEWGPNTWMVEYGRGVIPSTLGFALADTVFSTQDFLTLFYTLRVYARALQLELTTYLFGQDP

CCCN(CC[C@]1(O)C[C@@H](NS(=O)(=O)c2ccc(F)cc2)C1)[C@H]1CCc2nc(N)sc2C1 (relative stereo)  Ki (dopamine D1-like receptor, rat; radioligand binding; rat striatal membranes; with: [3H]SCH23390): 102 ± 5.39 µM
CC(C)C[C@H](NC(=O)[C@H](CCC(N)=O)NC(=O)[C@H](CCCNC(=N)N)NC(=O)[C@@H](N)Cc1ccccc1)C(=O)N[C@H](C(=O)N[C@@H](CO)C(=O)NCC(=O)N1CCCC[C@H]1C(=O)N[C@@H](CC(N)=O)C(=O)N[C@@H](CCC(N)=O)C(=O)N[C@@H](CCC(=O)O)C(=O)N[C@@H](CCC(N)=O)C(=O)N[C@H](C(=O)O)C(C)C)[C@@H](C)O  Ki (FAP; enzyme activity, inhibitor, fluorescence; pH 7.5): 14 µM
N=C(NCCCCNC(N)=O)NCCCc1c[nH]cn1  Ki (HRH1; ligand displacement, radioligand; cell membranes): > 31.6 µM
CC1(C)C=C(C(=O)OC(C)(C)C)C(=O)CC1  Ki (MAPK14 (Homo sapiens, UniProt Q16539); ligand displacement, FP): 19 µM
C/C(=N\Nc1cc(C)nc2cc3c(cc12)OCO3)c1cn(C)n(-c2ccccc2)c1=O  Ki (APEX1; enzyme activity, inhibitor): 0.18 µM
CC(=O)N(CCCP(=O)(O)O)OCc1ccc(-c2ccccc2)cc1  Ki (DXR; inhibitor; versus NADPH, with: NADPH varied 6-30 µM, DXP 144 µM): 0.44 µM
N=C(NCCCCCCCCN)NCCCc1c[nH]cn1  Ki (HRH1; ligand displacement, radioligand; cell membranes): 1.23 µM
CC[C@@H](C(=O)O)[C@H]1CCN[C@@H]1C(=O)O  Ki (NMDA receptor, rat; binding; cortical synaptosomes; with: [3H]-CGP 39653): > 100 µM
N=C(NCCCCCCNC(N)=O)NCCCc1c[nH]cn1  Ki (HRH1; ligand displacement, radioligand; cell membranes): > 10 µM
COCCCOc1ccnc(C[S+]([O-])c2nc3ccccc3[nH]2)c1C (stereo not shown)  Ki (CTDSP1 (Homo sapiens, UniProt Q9GZU7); phosphatase activity, inhibitor; with: p-nitrophenyl phosphate): 5 ± 2 µM
N=C(NCCCCCCCCCCCCN)NCCCc1c[nH]cn1  Ki (HRH1; ligand displacement, radioligand; cell membranes): 0.195 µM
COCCN1C(=O)C(O)=C(C(=O)c2ccccc2)C1c1cc(OC)ccc1OC (stereo not shown)  Ki (FPR1; ligand displacement in cells): < 2 µM
C[C@@H](O)[C@H](NC(=O)[C@H](CO)NC(=O)CNC(=O)[C@@H](N)CO)C(=O)N[C@@H](Cc1c[nH]cn1)C(=O)N[C@@H](Cc1ccccc1)C(=O)O  Ki (Na(+)/H(+) exchange regulatory cofactor NHE-RF2 PDZ domain 2; fluorescence polarization competition; with: FITC-labelled LPA2 peptide tracer): 9.1 ± 1 µM
CCCN(CCC1(O)CC(NC(=O)c2ccccc2F)C1)[C@H]1CCc2nc(N)sc2C1 (stereo in doubt)  Ki (Drd3; ligand displacement, radioligand; cell membranes): 0.00046 µM
Cc1c(C(=O)NN2CCCCC2)nn(-c2ccc(Cl)cc2Cl)c1/N=N/c1ccccc1  Ki (Cnr1; radioligand binding; rat brain membranes; trans isomer, 454 nm light, with: [3H]CP55940 0.6 nM): 0.458 ± 0.239 µM
COc1ccccc1C1C(C(=O)c2ccc(C)cc2)=C(O)C(=O)N1CC(C)O (stereo not shown)  Ki (FPR1; ligand displacement in cells): 10.4 µM
O=C(c1ccc(SCCF)cc1)C1CCN(C2Cc3ccccc3CC2O)CC1 (racemic)  Ki (SIGMAR1 (Cavia porcellus, UniProt Q60492); ligand displacement, radioligand): 0.0167 µM
O=C(Cn1cc(COc2ccc(-c3nc4ccccc4[nH]3)cc2)nn1)Nc1cnc(-c2ccc(Br)cc2)s1  Ki (α-glucosidase; inhibitor, Lineweaver-Burk secondary plot): 8.5 µM
CCCN(CCC1(O)CC(NC(=O)c2ccc(F)c(Cl)c2)C1)[C@H]1CCc2nc(N)sc2C1 (stereo in doubt)  Ki (dopamine D1-like receptor, rat; radioligand binding; rat striatal membranes; with: [3H]SCH23390): 28.2 ± 5.31 µM
CC(C)[C@H](NC(=O)[C@H](Cc1c[nH]c2ccccc12)NC(=O)[C@@H](NC(=O)[C@H](CC(=O)O)NC(=O)[C@H](Cc1ccccc1)NC(=O)CN)[C@@H](C)O)C(=O)O  Ki (Na(+)/H(+) exchange regulatory cofactor NHE-RF2 PDZ domain 2; fluorescence polarization competition; with: FITC-labelled LPA2 peptide tracer): 4.6 ± 1.5 µM
CN[C@H]1CC[C@@H](c2ccc(Cl)c(Cl)c2)c2ccccc21  Ki (Cytochrome P450 2B6 (CYP2B6, Homo sapiens, UniProt P20813); enzyme activity, competitive inhibitor; reconstituted system; 5 min, pH 7.4, with: 7-MFC): 0.38 µM and 0.22 µM and 0.3 µM
Cc1cc[nH]n1  Ki (CYP2E1 (Oryctolagus cuniculus, UniProt P08682); inhibitor; pH 7.4, 37 °C, catalytic site, CPR-K56Q and cytochrome b5, with: 4-nitrophenol): 11 µM
O=P(O)(O)OC[C@H]1N[C@H](COP(=O)(O)O)[C@@H](O)[C@@H]1O  Ki (Orotate phosphoribosyltransferase (Plasmodium falciparum, UniProt Q8I3Y0); enzyme activity, inhibitor, absorbance; pH 8): 39 µM
NC(C(=O)O)[C@@H]1CCN[C@H]1C(=O)O (relative stereo)  Ki (NMDA receptor, rat; binding; cortical synaptosomes; with: [3H]-CGP 39653): 8.9 µM
CC(C)[C@H](NC(=O)[C@H](Cc1c[nH]c2ccccc12)NC(=O)[C@@H](NC(=O)[C@H](CCC(=O)O)NC(=O)[C@H](Cc1ccccc1)NC(=O)CN)[C@@H](C)O)C(=O)O  Ki (Na(+)/H(+) exchange regulatory cofactor NHE-RF2 PDZ domain 2; fluorescence polarization competition; with: FITC-labelled LPA2 peptide tracer): 12.5 ± 2 µM
O=C(O)[C@H]1NCC[C@@H]1[C@H](C(=O)O)c1ccccc1  Ki (NMDA receptor, rat; binding; cortical synaptosomes; with: [3H]-CGP 39653): > 100 µM
O=C(O)Cc1cn(C[C@H](NC(=O)Cc2cccs2)B(O)O)nn1  Ki (Beta-lactamase ADC-7 (Acinetobacter baumannii, UniProt Q6DRA1); inhibitor; 5 min preincubation, pH 7.4, room temperature, with: nitrocefin): 0.115 ± 0.002 µM
CNc1nc(C#CCCCC(=O)OC)nc2c1ncn2[C@H]1C[C@H](OP(=O)(O)O)[C@]2(COP(=O)(O)O)C[C@H]12  Ki (P2RY1; ligand displacement, radioligand; cell membranes): 2.2 µM
CC12CCC(CC1)C(C)(C)O2  Ki (MSP; binding, fluorescence displacement; with: 1-AMA 2 µM): 0.31 µM
N=C(N)CCl  Ki (DDAH1 (Homo sapiens, UniProt O94760); time-dependent inactivation, inactivator; pH 7.3): 310 ± 30 µM
Cc1cc(N/N=C/c2c(C)n(C)n(-c3ccccc3)c2=O)c2cc3c(cc2n1)OCO3  Ki (APEX1; enzyme activity, inhibitor): 0.68 µM
CC(C)[C@H](NC(=O)[C@H](CCC(N)=O)NC(=O)[C@H](CCC(=O)O)NC(=O)[C@H](CCC(N)=O)NC(=O)[C@H](CC(N)=O)NC(=O)[C@@H]1CCCCN1C(=O)CNC(=O)COCCOCCNC(=O)CNC(=O)[C@@H](N)Cc1ccccc1)C(=O)O  Ki (FAP; enzyme activity, inhibitor, fluorescence; pH 7.5): 57.1 µM
N=C(NCCCN)NCCCc1c[nH]cn1  Ki (HRH1; ligand displacement, radioligand; cell membranes): > 100 µM
O=C(OCc1ccccc1)c1ccccc1  Ki (MSP; binding, fluorescence displacement; with: 1-AMA 2 µM): 1.34 µM
CC(=O)N(C/C=C/P(=O)(O)O)OCc1ccc(-c2ccccc2)cc1  Ki (DXR; inhibitor, Lineweaver-Burk plot; with: DXP varied, NADPH 150 µM): 0.719 µM
CCCCCC(C)=O  Ki (MSP; binding, fluorescence displacement; with: 1-AMA 2 µM): 3.46 µM
[Cl-].[K+]  Ki (Homoisocitrate dehydrogenase, mitochondrial (Saccharomyces cerevisiae S288c, UniProt P40495); enzyme activity, inhibitor, absorbance): 90000 µM
CC(=O)N[C@@H]1[C@@H](O)[C@H](O[C@@H]2O[C@H](CO)[C@@H](O[C@@H]3O[C@H](CO)[C@@H](O[C@@H]4O[C@H](CO)[C@@H](O[C@@H]5O[C@H](CO)[C@@H](O)[C@H](O)[C@H]5NC(C)=O)[C@H](O)[C@H]4NC(C)=O)[C@H](O)[C@H]3NC(C)=O)[C@H](O)[C@H]2NC(C)=O)[C@@H](CO)O[C@H]1O  Ki (LysM receptor-like kinase (Brachypodium distachyon, UniProt A0A0Q3FRN3); binding, competition crosslinking; membrane fractions; YFP-tagged target, with: 10 nM biotinylated compound): ~0.01 µM
CCCN(CCC1(O)CC(NC(=O)c2ccc(OC)cc2)C1)[C@H]1CCc2nc(N)sc2C1 (stereo in doubt)  Ki (dopamine D1-like receptor, rat; radioligand binding; rat striatal membranes; with: [3H]SCH23390): 42.8 ± 3.28 µM
N=C(N)NCCCCCCCCCCCCNC(=N)NCCCc1c[nH]cn1  Ki (HRH1; ligand displacement, radioligand; cell membranes): 0.257 µM
Cc1c(C(=O)NCc2cccc(/N=N/c3ccccc3)c2)nn(-c2ccc(Cl)cc2Cl)c1-c1ccc(Cl)cc1  Ki (Cnr1; radioligand binding; rat brain membranes; trans isomer, 454 nm light, with: [3H]CP55940 0.6 nM): 0.377 ± 0.243 µM
CCCN(CC[C@]1(O)C[C@@H](NS(=O)(=O)c2ccccc2Cl)C1)[C@H]1CCc2nc(N)sc2C1 (relative stereo)  Ki (dopamine D1-like receptor, rat; radioligand binding; rat striatal membranes; with: [3H]SCH23390): 94.9 ± 7.62 µM
O=C(CO)[C@H](O)[C@@H](O)CO  Ki (L-xylulose reductase (Homo sapiens, UniProt Q7Z4W1); quinone redox cycling, inhibitor; with: 9,10-phenanthrenequinone 20 µM): 940 µM
CCCN(CCC1(O)CC(NC(=O)c2ccccc2OC)C1)[C@H]1CCc2nc(N)sc2C1 (stereo in doubt)  Ki (Drd3; ligand displacement, radioligand; cell membranes): 0.001 µM
O=C(Oc1cc(O)cc2c1C[C@@H](OC(=O)c1cc(O)c(O)c(O)c1)[C@@H](c1cc(O)c(O)c(O)c1)O2)c1cc(O)c(O)c(O)c1  Ki (Epha4 (Mus musculus, UniProt Q03137); ephrin-A5 binding, inhibitor, ELISA; with: ephrin-A5): ~10 µM
CCCN(CCC1(O)CC(NC(=O)c2ccc(Cl)cc2)C1)[C@H]1CCc2nc(N)sc2C1 (stereo in doubt)  Ki (Drd3; ligand displacement, radioligand; cell membranes): 0.0016 µM
CNc1nc(C#CCCCC(=O)NCCN)nc2c1ncn2[C@H]1C[C@H](OP(=O)(O)O)[C@]2(COP(=O)(O)O)C[C@H]12  Ki (P2RY1; ligand displacement, radioligand; cell membranes): 1.15 µM
CCCN(CCC1(O)CC(NC(=O)c2ccccc2)C1)[C@H]1CCc2nc(N)sc2C1 (stereo in doubt)  Ki (dopamine D1-like receptor, rat; radioligand binding; rat striatal membranes; with: [3H]SCH23390): 1.97 ± 0.179 µM
O=C(O)c1c(Cl)c(Cl)c(Cl)c(Cl)c1-c1c2cc(I)c(=O)c(I)c-2oc2c(I)c(O)c(I)cc12  Ki (Dual specificity protein phosphatase 5 (Homo sapiens, UniProt Q16690); enzyme activity, noncompetitive inhibitor; 15 min, dark, two-Ki model): 0.35 ± 0.04 µM
